Measurements collected from several papers.
Each numbered part is a random draw from the data of one study; scales do not carry over between parts. Values joined by “and” are separate records of one study, mostly repeats; a detail may differ.
UniProt Q9HBH9, sequence (whole entry, looked up): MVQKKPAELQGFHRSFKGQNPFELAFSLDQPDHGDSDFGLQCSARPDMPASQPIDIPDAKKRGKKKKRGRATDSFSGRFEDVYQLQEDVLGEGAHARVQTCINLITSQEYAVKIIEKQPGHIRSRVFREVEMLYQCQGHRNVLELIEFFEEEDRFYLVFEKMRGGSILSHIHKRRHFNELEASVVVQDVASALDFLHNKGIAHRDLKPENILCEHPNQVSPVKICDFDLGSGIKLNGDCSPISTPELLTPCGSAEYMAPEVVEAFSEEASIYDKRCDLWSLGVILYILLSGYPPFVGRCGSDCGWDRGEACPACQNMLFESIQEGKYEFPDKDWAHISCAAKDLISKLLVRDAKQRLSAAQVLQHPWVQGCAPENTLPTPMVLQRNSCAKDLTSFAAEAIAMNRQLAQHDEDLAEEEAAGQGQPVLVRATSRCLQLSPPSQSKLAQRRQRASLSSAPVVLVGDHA
UniProt P68400, sequence (whole entry, looked up): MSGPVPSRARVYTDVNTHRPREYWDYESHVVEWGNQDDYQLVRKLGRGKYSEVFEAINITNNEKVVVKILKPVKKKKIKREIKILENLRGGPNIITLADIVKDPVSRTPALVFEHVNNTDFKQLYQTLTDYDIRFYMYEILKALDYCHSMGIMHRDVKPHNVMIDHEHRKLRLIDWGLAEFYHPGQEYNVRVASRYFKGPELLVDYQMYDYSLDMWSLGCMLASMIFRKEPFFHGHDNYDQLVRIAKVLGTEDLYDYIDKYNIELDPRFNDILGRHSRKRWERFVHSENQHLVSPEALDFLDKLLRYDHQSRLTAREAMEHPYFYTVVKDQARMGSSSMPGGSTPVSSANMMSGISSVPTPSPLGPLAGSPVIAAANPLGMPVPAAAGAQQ
UniProt O15264, sequence (whole entry, looked up): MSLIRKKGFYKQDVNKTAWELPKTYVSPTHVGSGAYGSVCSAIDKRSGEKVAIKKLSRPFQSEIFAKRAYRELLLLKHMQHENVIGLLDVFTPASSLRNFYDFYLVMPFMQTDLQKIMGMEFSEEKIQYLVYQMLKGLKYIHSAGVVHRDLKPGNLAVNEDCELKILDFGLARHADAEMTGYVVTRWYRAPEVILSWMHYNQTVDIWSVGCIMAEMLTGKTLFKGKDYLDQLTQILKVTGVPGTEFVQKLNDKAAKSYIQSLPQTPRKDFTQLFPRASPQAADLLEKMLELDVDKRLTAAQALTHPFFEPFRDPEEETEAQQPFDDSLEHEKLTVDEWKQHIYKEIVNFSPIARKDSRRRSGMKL
UniProt Q9Y243, sequence (whole entry, looked up): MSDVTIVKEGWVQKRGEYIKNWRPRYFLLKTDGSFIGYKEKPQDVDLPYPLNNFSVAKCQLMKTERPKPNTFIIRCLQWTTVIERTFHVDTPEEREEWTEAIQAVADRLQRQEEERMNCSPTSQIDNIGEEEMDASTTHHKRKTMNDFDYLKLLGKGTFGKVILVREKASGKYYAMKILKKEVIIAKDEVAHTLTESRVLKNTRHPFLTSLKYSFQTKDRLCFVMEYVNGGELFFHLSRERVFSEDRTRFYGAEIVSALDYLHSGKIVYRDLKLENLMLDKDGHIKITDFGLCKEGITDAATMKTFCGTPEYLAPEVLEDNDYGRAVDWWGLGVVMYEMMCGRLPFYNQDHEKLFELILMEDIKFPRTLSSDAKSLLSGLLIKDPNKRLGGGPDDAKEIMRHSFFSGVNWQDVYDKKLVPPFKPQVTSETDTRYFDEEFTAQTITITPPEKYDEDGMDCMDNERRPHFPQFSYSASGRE
UniProt P52564, sequence (whole entry, looked up): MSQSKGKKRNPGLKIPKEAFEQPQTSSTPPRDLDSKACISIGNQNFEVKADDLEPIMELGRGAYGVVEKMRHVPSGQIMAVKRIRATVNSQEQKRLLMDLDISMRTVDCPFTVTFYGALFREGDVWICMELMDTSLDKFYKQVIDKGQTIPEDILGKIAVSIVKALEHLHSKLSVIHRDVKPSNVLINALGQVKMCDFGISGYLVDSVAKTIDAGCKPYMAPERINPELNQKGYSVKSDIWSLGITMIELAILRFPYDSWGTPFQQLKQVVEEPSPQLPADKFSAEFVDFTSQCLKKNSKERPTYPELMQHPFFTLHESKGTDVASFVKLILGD
UniProt Q15208, sequence (whole entry, looked up): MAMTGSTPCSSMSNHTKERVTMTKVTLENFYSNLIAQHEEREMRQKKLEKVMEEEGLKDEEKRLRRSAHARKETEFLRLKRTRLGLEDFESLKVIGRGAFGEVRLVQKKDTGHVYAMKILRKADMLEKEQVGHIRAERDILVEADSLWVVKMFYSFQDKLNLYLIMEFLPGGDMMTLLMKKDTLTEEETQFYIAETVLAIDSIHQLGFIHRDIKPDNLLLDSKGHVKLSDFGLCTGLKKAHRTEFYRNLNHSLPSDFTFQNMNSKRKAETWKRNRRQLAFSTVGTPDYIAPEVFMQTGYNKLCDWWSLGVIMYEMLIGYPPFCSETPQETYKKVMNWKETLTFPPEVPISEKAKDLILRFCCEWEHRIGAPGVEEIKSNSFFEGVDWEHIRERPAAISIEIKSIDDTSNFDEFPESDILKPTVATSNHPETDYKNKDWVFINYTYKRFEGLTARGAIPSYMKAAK
UniProt Q9NYY3, sequence (whole entry, looked up): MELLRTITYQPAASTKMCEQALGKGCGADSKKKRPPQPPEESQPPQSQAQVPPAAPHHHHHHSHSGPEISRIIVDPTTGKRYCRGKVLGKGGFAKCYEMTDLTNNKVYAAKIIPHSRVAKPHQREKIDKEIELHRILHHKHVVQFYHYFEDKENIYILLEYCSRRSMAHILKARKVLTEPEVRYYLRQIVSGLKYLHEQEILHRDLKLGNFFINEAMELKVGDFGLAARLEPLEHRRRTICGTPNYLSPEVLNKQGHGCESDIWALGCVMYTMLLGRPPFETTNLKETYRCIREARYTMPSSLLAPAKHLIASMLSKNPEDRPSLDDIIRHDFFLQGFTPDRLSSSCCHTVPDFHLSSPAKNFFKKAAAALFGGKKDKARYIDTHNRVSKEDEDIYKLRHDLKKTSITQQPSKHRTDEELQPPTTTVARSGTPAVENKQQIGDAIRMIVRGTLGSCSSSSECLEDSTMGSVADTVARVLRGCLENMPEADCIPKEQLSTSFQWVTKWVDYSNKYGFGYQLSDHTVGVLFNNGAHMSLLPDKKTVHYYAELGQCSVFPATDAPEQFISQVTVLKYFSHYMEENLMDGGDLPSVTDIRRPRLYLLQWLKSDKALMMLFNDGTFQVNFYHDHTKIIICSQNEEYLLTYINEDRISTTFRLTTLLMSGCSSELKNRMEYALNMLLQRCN
UniProt P41743, sequence (whole entry, looked up): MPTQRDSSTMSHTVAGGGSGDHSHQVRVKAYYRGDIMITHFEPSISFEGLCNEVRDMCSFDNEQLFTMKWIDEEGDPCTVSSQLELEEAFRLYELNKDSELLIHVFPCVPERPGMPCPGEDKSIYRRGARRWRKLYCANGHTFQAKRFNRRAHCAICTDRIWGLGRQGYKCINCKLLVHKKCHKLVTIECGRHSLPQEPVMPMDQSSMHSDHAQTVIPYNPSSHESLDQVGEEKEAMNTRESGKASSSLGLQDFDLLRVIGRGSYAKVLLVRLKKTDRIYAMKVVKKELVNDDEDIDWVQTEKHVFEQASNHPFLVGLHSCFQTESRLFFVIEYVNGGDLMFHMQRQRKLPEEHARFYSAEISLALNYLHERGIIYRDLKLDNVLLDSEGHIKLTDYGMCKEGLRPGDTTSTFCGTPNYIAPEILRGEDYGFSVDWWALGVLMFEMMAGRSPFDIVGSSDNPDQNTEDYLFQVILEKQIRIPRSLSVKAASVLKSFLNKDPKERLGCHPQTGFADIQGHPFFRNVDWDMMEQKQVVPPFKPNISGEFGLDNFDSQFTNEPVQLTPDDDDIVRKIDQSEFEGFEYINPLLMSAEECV
UniProt P10721, sequence (whole entry, looked up): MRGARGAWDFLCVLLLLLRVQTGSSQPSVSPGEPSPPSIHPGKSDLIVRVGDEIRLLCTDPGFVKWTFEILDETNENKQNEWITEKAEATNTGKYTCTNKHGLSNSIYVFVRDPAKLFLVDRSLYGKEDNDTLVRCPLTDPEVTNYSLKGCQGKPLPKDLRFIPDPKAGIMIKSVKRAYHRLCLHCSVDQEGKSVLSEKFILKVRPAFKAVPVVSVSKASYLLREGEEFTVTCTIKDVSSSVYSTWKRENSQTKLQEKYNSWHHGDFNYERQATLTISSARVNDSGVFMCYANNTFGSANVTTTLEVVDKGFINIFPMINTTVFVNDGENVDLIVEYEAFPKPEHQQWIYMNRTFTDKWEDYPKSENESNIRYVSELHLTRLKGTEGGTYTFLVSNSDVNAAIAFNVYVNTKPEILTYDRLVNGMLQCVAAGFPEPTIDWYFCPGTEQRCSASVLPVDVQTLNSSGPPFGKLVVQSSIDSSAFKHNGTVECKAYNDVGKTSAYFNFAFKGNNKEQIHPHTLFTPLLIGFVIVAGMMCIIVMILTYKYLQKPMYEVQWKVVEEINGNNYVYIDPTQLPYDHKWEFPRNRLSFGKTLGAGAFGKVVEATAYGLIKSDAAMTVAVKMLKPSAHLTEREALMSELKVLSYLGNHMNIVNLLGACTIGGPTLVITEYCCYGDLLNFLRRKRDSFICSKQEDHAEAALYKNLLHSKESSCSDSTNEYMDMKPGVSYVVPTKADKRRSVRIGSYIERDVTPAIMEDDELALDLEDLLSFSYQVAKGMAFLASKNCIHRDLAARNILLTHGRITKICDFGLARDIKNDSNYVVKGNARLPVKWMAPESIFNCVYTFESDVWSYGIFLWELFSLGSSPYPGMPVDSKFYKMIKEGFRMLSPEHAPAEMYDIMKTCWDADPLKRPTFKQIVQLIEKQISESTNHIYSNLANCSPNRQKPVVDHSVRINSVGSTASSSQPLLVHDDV

Set 1
Cell line: normal organoid sample D
Technique: CellTiter-Glo
Species: human
Matrix: normal-adjacent epithelium
Tested at: 1 µM
Relative to: DMSO
Quantity: viability
O=C1NC(c2ccccn2)Sc2ccccc21 (stereo not drawn): 101% and 110%
CC1=C(C#N)C(c2ccc3[nH]nc(C)c3c2)C(C#N)=C(C)N1: 116% and 100%
CC(=O)C1=C(C)N(c2cccc(C(F)(F)F)c2)C(=O)N[C@@H]1c1ccc(C#N)nc1: 112%
CO[C@@H](C)c1c(Nc2ccc([C@@H](N(C)C(=O)C3CCS(=O)(=O)CC3)C(F)(F)F)cc2)cnc2cc(Cl)nn12: 100% and 114%
CN([C@@H]1CCc2c(CC(=O)O)c3ccccc3n2C1)S(=O)(=O)c1ccc(F)cc1: 113% and 102%
Cc1c(C(=O)O)cc(-c2ccc(C3CCNCC3)cc2)c2ccc(-c3ccc(C(F)(F)F)cc3)cc12: 117% and 111%
CN(C)CC#Cc1ccc(OCCCc2sc(N3CCc4cccc(C(=O)Nc5nc6ccccc6s5)c4C3)nc2C(=O)O)c(F)c1: 39% and 125%
O=C(NS(=O)(=O)c1ccc(NCC2CCOCC2)c([N+](=O)[O-])c1)c1ccc(N2CCN(Cc3ccc(C(F)(F)F)cc3-c3ccc(Cl)cc3)CC2)cc1Oc1cnc2[nH]ccc2c1: 98.4% and 69.8%
CCNC(=O)c1cc2c(N3CCOC[C@@H]3C)ccnc2[nH]1: 119% and 103%
CC(=O)c1c(NS(C)(=O)=O)c2cc(-c3ccc(Cl)cc3)c(-c3ccc(Cl)cc3Cl)nc2n(C)c1=O: 98% and 88.9%
CC(=O)N1CCC(c2ccc(C(=O)NC(=N)N)cc2C(F)(F)F)CC1: 104% and 114%
O=C(Nc1cnc(Oc2ccc(F)cc2)nc1)N1CCc2ncccc2[C@@H]1c1ccc(F)cc1: 144% and 134%

Set 2
Cell line: mouse MPNST tumor cells
Technique: high-content nuclear imaging
Item: cell number
Tested at: 10 µM
Time: 12 h
Setting: mean of 2 replicates
Relative to: plate mean
Direction: higher = more cells
Quantity: nuclei count
COc1cc2nc(N3CCN(C(=O)C4CCCO4)CC3)nc(N)c2cc1OC (stereo not drawn): 0.922 z-score and 2.08 z-score
O=C(CCc1ccncc1)NNC(=O)N1Cc2ccccc2Oc2ccc(Cl)cc21: 0.337 z-score
CC(=O)c1cc([N+](=O)[O-])c(Sc2ccc(F)cc2F)s1: -0.475 z-score
Nc1nccc(-c2c(-c3ccc(F)cc3)ncn2C2CCN(Cc3ccon3)CC2)n1: -1.64 z-score
NS(=O)(=O)c1ccc2c(c1)C1C=CCC1C(c1ccc(Br)cc1)N2 (stereo not drawn): 1.92 z-score
COc1cc(NS(=O)(=O)c2ccc(N)cc2)ncn1: 1.73 z-score
O=c1c(-c2ccc(O)cc2)coc2cc(O)ccc12: 1.82 z-score
C[C@@H](CN1CCC(Cc2ccccc2)CC1)[C@@H](O)c1ccc(O)cc1: 2.83 z-score

Set 3
Structure (SMILES): Cc1ccc(NC(=O)c2ccc(CN3CCN(C)CC3)cc2)cc1Nc1nccc(-c2cccnc2)n1
Read-out: enzyme activity
Mode: inhibitor
Tested at: 0.5 µM
Relative to: control
Quantity: remaining activity
PLK2 (Homo sapiens, UniProt Q9NYY3): 104%
STK38 (Homo sapiens, UniProt Q15208): 100%
WNK2 (Homo sapiens, UniProt Q9Y3S1): 102%
KIT (Homo sapiens, UniProt P10721): 49.6%
PRKCI (Homo sapiens, UniProt P41743): 91.2%
MAPK13 (Homo sapiens, UniProt O15264): 97.2%
MKNK2 (Homo sapiens, UniProt Q9HBH9): 106%
AKT3 (Homo sapiens, UniProt Q9Y243): 92.4%
LRRK2 (Homo sapiens, UniProt Q5S007): 98.3%
CSNK2A1 (Homo sapiens, UniProt P68400): 107%
MAP2K6 (Homo sapiens, UniProt P52564): 96.3%

Set 4
Cell line: A-375
Tested at: 100 µM
Time: 18 h
Quantity: viability
CCN1CCN(Cc2ccc(Nc3ncc(F)c(-c4cc(F)c5nc(C)n(C(C)C)c5c4)n3)nc2)CC1: 105%
Nc1nccs1: 81.4%
CC(=O)CCCCn1c(=O)c2c(ncn2C)n(C)c1=O: 100%
C[C@@H](O[C@H]1OCCN(Cc2n[nH]c(=O)[nH]2)[C@H]1c1ccc(F)cc1)c1cc(C(F)(F)F)cc(C(F)(F)F)c1: 7.95%
C=CC[C@@H]1/C=C(\C)C[C@H](C)C[C@H](OC)[C@H]2O[C@@](O)(C(=O)C(=O)N3CCCC[C@H]3C(=O)O[C@H](/C(C)=C/[C@@H]3CC[C@@H](O)[C@H](OC)C3)[C@H](C)[C@@H](O)CC1=O)[C@H](C)C[C@@H]2OC: 12.1%
COc1ccc(C(=O)NCc2ccc(OCCN(C)C)cc2)cc1OC: 91.5%
CC(=O)N[C@@H](CCC(N)=O)C(=O)O: 111%
CCN1CCCC1CNC(=O)c1cc(S(=O)(=O)CC)c(N)cc1OC (stereo not drawn): 87.7%

A few entries again (set 3):
KIT (Homo sapiens, UniProt P10721): 49.6%
AKT3 (Homo sapiens, UniProt Q9Y243): 92.4%
WNK2 (Homo sapiens, UniProt Q9Y3S1): 102%
STK38 (Homo sapiens, UniProt Q15208): 100%
PLK2 (Homo sapiens, UniProt Q9NYY3): 104%
MKNK2 (Homo sapiens, UniProt Q9HBH9): 106%
